Published values from different studies.
A part holds a random share of what one study measured. Substitutions count along the parent as printed.

Sample 1 — technique: universal PBM; molecule type: double-stranded DNA, one strand shown; matrix: in vitro; tested at: 600 nM; reading: higher = stronger binding
Target: Sal-like protein 4, full length isoform A (SALL4, Homo sapiens, UniProt Q9UJQ4, residues 1-1053)
Chain of UniProt Q9UJQ4 (whole entry, looked up): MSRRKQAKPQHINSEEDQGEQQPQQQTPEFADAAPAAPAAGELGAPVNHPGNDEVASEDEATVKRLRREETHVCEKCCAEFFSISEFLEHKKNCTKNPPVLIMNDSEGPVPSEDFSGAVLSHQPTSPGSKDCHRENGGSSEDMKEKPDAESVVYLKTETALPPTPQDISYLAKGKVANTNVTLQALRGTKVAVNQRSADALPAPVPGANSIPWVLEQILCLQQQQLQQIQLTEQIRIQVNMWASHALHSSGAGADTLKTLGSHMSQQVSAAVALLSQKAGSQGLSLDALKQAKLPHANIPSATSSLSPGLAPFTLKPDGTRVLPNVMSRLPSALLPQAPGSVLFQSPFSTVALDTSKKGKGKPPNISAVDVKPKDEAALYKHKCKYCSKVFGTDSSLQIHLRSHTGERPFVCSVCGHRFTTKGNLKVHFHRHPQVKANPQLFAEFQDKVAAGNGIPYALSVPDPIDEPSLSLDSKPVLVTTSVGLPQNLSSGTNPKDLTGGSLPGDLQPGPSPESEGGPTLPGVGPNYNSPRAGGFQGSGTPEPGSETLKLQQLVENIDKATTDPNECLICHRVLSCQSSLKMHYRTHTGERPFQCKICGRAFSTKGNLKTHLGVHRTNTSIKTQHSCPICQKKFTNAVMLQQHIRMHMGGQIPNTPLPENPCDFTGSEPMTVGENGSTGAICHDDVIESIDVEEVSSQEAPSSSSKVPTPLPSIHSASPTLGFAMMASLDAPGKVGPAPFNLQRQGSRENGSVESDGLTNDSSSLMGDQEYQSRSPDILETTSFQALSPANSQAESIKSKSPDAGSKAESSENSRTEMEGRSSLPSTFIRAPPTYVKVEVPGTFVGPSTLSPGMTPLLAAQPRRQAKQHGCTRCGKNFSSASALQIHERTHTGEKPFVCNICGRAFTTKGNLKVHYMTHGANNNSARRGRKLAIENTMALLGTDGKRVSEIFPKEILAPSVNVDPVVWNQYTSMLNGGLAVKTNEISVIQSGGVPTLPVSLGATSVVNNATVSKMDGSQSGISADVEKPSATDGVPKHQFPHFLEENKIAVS
Notes: 8-mer, flanks averaged, mean of replicates
`CAAGTCGG` gave an E-score of -0.19.
`CCGGGAGC` gave an E-score of -0.404.
For `GCCCTAAC`, the E-score was -0.047.
The E-score of `ACATCAGT` is reported as -0.0387.
`CACTGATC` gave an E-score of -0.0919.
The E-score of `CTGCCCAC` is reported as -0.212.
`AGGCAACA` gave an E-score of -0.139.
`CGACTCAC` gave an E-score of -0.104.
`CCGATCGC` gave an E-score of -0.0673.
With `CCACGTGA` the E-score was -0.144.
`GTCTTTTA` gave an E-score of 0.0366.
For `AAGAAAAC`, the E-score was 0.105.
`CCGCTTGA` gave an E-score of -0.136.
For `ATTCTGGG`, the E-score was -0.0578.
With `CACCCCTA` the E-score was -0.139.
For `ACATTTTC`, the E-score was 0.212.
`CTAATTAG` has an E-score of 0.209.
`CCGTCAAA` gave an E-score of 0.00232.
For `TCGAGCAA`, the E-score was -0.0536.
With `TACCCAGA` the E-score was 0.105.
`ATGGCAAG` has an E-score of 0.0408.
`ATGAGAGA` gave an E-score of 0.126.
The E-score of `AACTCTGC` is reported as -0.159.
`CTAGGGGC` gave an E-score of -0.273.
`CCATAACG` has an E-score of 0.121.

Sample 2 — technique: protein-binding microarray; molecule type: double-stranded DNA, one strand shown; matrix: in vitro; tested at: 2200 nM top; notes: 60-bp whole probe; together with: salmon DNA 0.4 mg/ml; reference: random background probes; reading: higher = stronger binding; constant ends, left off below: GCCTAGCAC … GTCTTGATTCGCTTGACGCTGCTG
Target: Interferon regulatory factor 7, full length, phosphomimetic (IRF7, Homo sapiens, UniProt Q92985, residues 1-503, S471D/S472D/S475D/S476D/S477D/S483D/S484D/S487D)
Chain of UniProt Q92985 (whole entry, unmodified, looked up): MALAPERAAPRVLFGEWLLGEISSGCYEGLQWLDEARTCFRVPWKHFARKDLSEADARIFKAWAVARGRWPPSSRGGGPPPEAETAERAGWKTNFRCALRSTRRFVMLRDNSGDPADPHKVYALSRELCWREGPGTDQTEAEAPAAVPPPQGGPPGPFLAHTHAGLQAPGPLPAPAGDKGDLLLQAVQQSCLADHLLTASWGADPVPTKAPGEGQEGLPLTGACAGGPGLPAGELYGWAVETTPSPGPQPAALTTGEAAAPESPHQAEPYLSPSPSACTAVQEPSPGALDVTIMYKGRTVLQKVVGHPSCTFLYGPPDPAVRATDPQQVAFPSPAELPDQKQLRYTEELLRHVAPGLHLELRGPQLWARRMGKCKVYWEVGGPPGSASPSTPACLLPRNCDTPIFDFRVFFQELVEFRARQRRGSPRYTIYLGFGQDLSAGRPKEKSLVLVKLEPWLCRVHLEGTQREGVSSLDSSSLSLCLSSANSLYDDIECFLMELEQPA
Under “fitted relative affinity”, `AAGACCATCCTATGTAGATGTGTGCTA` is recorded as 0.353 z-score.
For `TTACCTTTTCACTTTACACAGTGCTAG`, “fitted relative affinity” read 4.8 z-score.
Under “fitted relative affinity”, `GACGGTTTCGAGACTGGGGACGTGCTA` is recorded as 2.84 z-score.
`GACGGACTGGGTCTCTGGACGTGCTAG`: “fitted relative affinity” -0.898 z-score.
Under “fitted relative affinity”, `GACCGACTGGGTCTCGGGACGTGCTAG` is recorded as -0.545 z-score.
`GACGGTTTCGACTATCGGGAGGTGCTA`: “fitted relative affinity” 3.2 z-score.
`TGAGGTCTCCTTCTCCTTTAGTGCTAG`: “fitted relative affinity” 0.754 z-score.
`TTAGGTTTCGGGTTTCGGTGAGTGCTA` — result for “fitted relative affinity”: 9.31 z-score.
Under “fitted relative affinity”, `CACGATATCGGGTATCGAGACGTGCTA` is recorded as 0.382 z-score.
`GACGGACTGGGTTTAGGGACGTGCTAG` — result for “fitted relative affinity”: -0.608 z-score.
For `GACGGTATCGGGTTTCGTGACGTGCTA`, “fitted relative affinity” read 1.01 z-score.
`TGAGTAATTACATAATTACGGTGCTAG` — result for “fitted relative affinity”: -0.115 z-score.
Under “fitted relative affinity”, `GACGGTTTCGGTATCGGGAAGTGCTAG` is recorded as 7.86 z-score.
`TGAGATTTCAGTTCCGATTAGTGCTAG`: “fitted relative affinity” 1.77 z-score.
`GAAGGTTCCCTTTTCCTGACGTGCTAG`: “fitted relative affinity” 2.45 z-score.
`GACGGTATTGGTTTCGGGACGTGCTAG`: “fitted relative affinity” 3.39 z-score.
Under “fitted relative affinity”, `TTAGGTATCCTTTTCCTATAGTGCTAG` is recorded as 1.51 z-score.
Under “fitted relative affinity”, `TGGGGTTCACTCCGGTACCCGTGCTAG` is recorded as -0.426 z-score.
`GACGATTTCGGGACTGGAAACGTGCTA`: “fitted relative affinity” 1.22 z-score.

Sample 3 — technique: DHFR PCA, deep sequencing; matrix: yeast; together with: (+)-ABA 710 µM; reference: wild-type fitted maximum; reading: higher = stronger binding
Target: ABI1, truncated, D143A, DHFR fusion (Arabidopsis thaliana)
Notes: methotrexate growth selection, single substitutions
Parent: PYL1, truncated, DHFR fusion (Arabidopsis thaliana); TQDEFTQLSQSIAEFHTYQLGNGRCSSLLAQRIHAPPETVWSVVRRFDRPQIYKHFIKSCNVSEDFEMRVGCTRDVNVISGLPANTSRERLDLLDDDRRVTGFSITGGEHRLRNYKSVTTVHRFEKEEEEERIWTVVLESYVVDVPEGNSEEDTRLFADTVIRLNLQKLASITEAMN; partner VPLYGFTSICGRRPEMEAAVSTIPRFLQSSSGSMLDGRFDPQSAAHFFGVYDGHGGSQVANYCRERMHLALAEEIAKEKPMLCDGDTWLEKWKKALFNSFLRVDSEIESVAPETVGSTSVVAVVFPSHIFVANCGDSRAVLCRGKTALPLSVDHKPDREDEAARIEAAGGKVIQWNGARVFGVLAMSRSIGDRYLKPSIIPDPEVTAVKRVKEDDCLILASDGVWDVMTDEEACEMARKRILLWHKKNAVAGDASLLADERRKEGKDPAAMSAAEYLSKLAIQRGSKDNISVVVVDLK
`Q167E`: “relative binding score” 115%.
For `I57R`, “relative binding score” read 4.33%.
Under “relative binding score”, `E14R` is recorded as 98.4%.
`T160V`: “relative binding score” 88.7%.
`L94M`: “relative binding score” 103%.
For `T154E`, “relative binding score” read 2.99%.
For `G148T`, “relative binding score” read 95.5%.
Under “relative binding score”, `C60I` is recorded as 94.4%.
`S27W`: “relative binding score” 55.4%.
For `P37F`, “relative binding score” read 72%.
For `D75F`, “relative binding score” read 100%.
For `E129R`, “relative binding score” read 105%.
`E128S`: “relative binding score” 110%.
For `V145M`, “relative binding score” read 86.6%.
`T86Q` — result for “relative binding score”: 94.4%.

Sample 4 — technique: protein binding microarray; molecule type: double-stranded DNA, one strand shown; matrix: in vitro; tested at: not given; reference: not given; reading: higher = stronger binding
Target: Histone acetyltransferase KAT6A, both winged helices, GST fusion (KAT6A, Homo sapiens, UniProt Q92794, residues 1-181)
Notes: 8-mer, flanks averaged, mean of 2 arrays, mostly near background
Residues (chain): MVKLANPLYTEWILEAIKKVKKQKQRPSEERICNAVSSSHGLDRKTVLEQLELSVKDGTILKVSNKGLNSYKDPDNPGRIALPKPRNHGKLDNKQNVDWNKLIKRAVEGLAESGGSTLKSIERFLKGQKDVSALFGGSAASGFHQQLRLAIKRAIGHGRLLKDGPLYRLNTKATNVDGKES
With `GACAAGCA` the E-score was -0.0245.
The E-score of `CCTTCTAG` is reported as -0.0509.
`AACGAGGC` gave an E-score of -0.0815.
`GCTCATCA` has an E-score of -0.0706.
`CCACGCCG` has an E-score of 0.243.
`CAGTTTTC` gave an E-score of -0.105.
The E-score of `GACCCTAC` is reported as -0.148.
The E-score of `GTGCCGGA` is reported as 0.143.
For `CGGTCTTC`, the E-score was 0.0993.
The E-score of `TTCCCAAA` is reported as -0.287.
For `ACCGGACG`, the E-score was 0.233.
`GATACAGA` has an E-score of -0.155.
With `CCAGGAAG` the E-score was -0.0849.
`AAACCTCC` has an E-score of -0.247.
`AGCTTCTG` gave an E-score of -0.0386.
`TCTAAACA` has an E-score of 0.0156.
With `ATGGCAAG` the E-score was -0.0843.
With `CGAATCTA` the E-score was 0.00231.
For `ACTTCTTC`, the E-score was -0.237.
The E-score of `CTGTGAGC` is reported as 0.0466.
`TCGAGGAA` gave an E-score of -0.139.
The E-score of `CGGGCGGC` is reported as 0.346.
`CCTGTGTC` has an E-score of -0.0522.
With `AGGAACAT` the E-score was -0.171.
The E-score of `CAGTTTGG` is reported as -0.0388.

Sample 5 — target: CCNB2, cyclin fold, Cln2 fusion (human); technique: yeast growth competition, sequencing; matrix: yeast; notes: weak parent motif; reference: not given; reading: higher = stronger binding
Parent: CDC25A docking peptide (human); PPHRRRLLFACSP
Under “normalised enrichment score”, `PPHRRRLLGACSP [F9G]` is recorded as 0.829.
`PVHRRRLLFACSP [P2V]` — result for “normalised enrichment score”: 0.615.
`PPHRRRLPFACSP [L8P]` — result for “normalised enrichment score”: -0.0359.
For `PPHRRRLFFACSP [L8F]`, “normalised enrichment score” read 0.76.
Under “normalised enrichment score”, `PPKRRRLLFACSP [H3K]` is recorded as 0.158.
`PPHRRRFLFACSP [L7F]` — result for “normalised enrichment score”: 0.719.
`PPHRRRLLFCCSP [A10C]` — result for “normalised enrichment score”: 0.205.
`PPHRRRLIFACSP [L8I]`: “normalised enrichment score” 1.
`PPHRRRLQFACSP [L8Q]` — result for “normalised enrichment score”: -0.145.
Under “normalised enrichment score”, `PPHRRRLLTACSP [F9T]` is recorded as 0.681.
For `PPHRRYLLFACSP [R6Y]`, “normalised enrichment score” read 0.088.
`PPNRRRLLFACSP [H3N]`: “normalised enrichment score” 0.42.
`PPHRRRRLFACSP [L7R]` — result for “normalised enrichment score”: 0.594.
For `PPHRRHLLFACSP [R6H]`, “normalised enrichment score” read 0.511.
`PPHRRRLLFACSK [P13K]`: “normalised enrichment score” 0.443.

Single results of other studies
`PhoQ, residues 284 288 289 292 302 303 SLANKL` gave a fold induction of 18.6 (PhoP, residues 12 14 15 18 19 HLGGL (Escherichia coli, UniProt P23836); Sort-seq, item: YFP reporter; E. coli; PhoQ-PhoP variant library, together with: 10 µM Mg2+; reference: high Mg2+ state, higher = stronger signaling).

Repeated from above (sample 5):
`PVHRRRLLFACSP [P2V]` — result for “normalised enrichment score”: 0.615.
`PPHRRRLPFACSP [L8P]` — result for “normalised enrichment score”: -0.0359.
For `PPHRRRLFFACSP [L8F]`, “normalised enrichment score” read 0.76.
Under “normalised enrichment score”, `PPKRRRLLFACSP [H3K]` is recorded as 0.158.
`PPHRRRFLFACSP [L7F]` — result for “normalised enrichment score”: 0.719.
`PPHRRRLLFCCSP [A10C]` — result for “normalised enrichment score”: 0.205.
`PPHRRRLIFACSP [L8I]`: “normalised enrichment score” 1.
`PPHRRRLQFACSP [L8Q]` — result for “normalised enrichment score”: -0.145.
Under “normalised enrichment score”, `PPHRRRLLTACSP [F9T]` is recorded as 0.681.
For `PPHRRYLLFACSP [R6Y]`, “normalised enrichment score” read 0.088.
`PPNRRRLLFACSP [H3N]`: “normalised enrichment score” 0.42.
`PPHRRRRLFACSP [L7R]` — result for “normalised enrichment score”: 0.594.
For `PPHRRHLLFACSP [R6H]`, “normalised enrichment score” read 0.511.
